Experimental data gathered from unrelated publications.
Lines come from different studies, so protocols differ. ± gives the spread as reported.
Sequence of UniProt P53680 (whole entry, looked up): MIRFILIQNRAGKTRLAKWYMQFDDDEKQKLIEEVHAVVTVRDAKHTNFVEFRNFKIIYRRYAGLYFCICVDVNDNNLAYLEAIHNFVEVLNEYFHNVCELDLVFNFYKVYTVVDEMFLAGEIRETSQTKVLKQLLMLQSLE
Sequence of UniProt Q9Y2I7 (whole entry, looked up): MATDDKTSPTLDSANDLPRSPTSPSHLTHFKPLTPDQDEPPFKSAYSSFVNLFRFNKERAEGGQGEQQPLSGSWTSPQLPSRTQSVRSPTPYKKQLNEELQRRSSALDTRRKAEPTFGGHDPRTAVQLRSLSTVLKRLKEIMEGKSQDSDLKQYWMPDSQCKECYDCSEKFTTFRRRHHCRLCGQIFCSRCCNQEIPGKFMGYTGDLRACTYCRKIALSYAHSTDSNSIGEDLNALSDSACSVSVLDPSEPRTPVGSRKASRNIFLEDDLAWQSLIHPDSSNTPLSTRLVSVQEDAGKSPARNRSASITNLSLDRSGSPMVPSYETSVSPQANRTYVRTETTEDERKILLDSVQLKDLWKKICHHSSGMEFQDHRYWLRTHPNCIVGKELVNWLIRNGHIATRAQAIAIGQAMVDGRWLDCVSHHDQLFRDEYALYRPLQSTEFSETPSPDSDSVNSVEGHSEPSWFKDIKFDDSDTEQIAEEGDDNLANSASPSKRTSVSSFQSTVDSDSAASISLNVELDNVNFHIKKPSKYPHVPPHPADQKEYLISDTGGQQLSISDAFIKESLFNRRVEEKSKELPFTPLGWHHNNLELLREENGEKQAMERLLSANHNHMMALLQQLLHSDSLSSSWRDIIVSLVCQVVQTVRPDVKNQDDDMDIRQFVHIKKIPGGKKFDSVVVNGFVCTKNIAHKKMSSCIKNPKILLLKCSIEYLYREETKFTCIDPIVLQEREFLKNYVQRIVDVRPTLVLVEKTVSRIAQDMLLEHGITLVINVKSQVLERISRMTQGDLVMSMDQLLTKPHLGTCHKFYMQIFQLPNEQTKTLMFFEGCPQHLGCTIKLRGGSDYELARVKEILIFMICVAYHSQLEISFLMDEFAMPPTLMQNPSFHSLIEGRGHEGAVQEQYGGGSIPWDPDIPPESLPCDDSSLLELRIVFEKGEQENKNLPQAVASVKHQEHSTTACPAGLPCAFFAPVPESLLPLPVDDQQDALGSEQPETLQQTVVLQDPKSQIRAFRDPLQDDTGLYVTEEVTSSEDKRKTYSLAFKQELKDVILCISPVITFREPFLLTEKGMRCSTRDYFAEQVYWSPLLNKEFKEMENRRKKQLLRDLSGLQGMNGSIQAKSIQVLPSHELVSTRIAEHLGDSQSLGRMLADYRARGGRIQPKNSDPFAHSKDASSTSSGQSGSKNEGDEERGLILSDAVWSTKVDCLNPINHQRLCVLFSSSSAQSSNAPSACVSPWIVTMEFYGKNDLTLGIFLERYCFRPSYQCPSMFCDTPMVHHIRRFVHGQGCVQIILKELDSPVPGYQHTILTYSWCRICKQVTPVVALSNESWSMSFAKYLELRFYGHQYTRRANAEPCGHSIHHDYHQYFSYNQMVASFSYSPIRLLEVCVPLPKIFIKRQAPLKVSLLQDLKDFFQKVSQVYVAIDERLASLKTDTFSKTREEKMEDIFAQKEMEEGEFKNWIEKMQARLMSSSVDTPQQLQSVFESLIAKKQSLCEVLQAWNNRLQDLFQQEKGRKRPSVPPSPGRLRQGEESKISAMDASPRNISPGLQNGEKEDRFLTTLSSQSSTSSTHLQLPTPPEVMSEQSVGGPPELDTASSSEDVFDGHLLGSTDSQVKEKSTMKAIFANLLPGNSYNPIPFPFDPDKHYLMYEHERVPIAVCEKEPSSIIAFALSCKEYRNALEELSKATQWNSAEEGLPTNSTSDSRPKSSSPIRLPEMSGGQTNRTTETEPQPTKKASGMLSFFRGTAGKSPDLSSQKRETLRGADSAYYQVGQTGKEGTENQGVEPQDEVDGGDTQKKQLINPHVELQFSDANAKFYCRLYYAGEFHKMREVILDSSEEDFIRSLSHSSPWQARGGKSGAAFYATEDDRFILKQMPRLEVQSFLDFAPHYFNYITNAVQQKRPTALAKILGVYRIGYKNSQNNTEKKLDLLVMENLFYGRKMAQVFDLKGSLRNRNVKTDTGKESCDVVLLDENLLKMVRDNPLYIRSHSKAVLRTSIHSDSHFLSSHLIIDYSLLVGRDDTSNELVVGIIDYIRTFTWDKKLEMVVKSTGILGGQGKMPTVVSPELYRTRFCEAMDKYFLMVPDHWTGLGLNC
Sequence of UniProt O94921 (whole entry, looked up): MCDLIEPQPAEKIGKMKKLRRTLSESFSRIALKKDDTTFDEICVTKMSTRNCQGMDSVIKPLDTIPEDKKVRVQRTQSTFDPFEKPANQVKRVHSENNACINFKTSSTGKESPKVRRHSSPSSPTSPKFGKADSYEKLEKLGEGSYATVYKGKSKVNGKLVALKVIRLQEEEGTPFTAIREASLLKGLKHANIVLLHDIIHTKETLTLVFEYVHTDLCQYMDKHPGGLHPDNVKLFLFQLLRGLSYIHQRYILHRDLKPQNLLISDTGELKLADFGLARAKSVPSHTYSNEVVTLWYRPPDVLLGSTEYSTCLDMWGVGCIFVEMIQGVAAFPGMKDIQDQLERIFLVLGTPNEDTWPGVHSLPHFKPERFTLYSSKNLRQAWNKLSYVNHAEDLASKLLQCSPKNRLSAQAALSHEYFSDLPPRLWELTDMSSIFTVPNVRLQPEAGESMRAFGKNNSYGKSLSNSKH
Sequence of UniProt Q96G91 (whole entry, looked up): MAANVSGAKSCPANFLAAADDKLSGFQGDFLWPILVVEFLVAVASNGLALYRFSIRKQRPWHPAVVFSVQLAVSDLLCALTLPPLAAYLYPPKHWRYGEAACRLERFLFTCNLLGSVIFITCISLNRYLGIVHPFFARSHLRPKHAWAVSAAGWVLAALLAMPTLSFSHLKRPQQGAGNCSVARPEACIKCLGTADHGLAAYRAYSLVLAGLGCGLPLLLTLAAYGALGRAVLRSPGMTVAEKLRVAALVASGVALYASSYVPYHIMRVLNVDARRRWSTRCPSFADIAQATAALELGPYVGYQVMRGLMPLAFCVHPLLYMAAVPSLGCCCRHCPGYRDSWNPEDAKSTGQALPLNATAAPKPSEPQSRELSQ
Sequence of UniProt P00942 (whole entry, unmodified, looked up): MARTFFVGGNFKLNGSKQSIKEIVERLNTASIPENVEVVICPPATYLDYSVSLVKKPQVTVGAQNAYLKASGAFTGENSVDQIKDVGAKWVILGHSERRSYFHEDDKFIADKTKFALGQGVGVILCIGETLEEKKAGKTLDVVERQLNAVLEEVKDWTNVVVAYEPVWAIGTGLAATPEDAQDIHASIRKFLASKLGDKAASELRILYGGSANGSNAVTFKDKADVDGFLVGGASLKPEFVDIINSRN
Sequence of UniProt Q8TBX8 (whole entry, looked up): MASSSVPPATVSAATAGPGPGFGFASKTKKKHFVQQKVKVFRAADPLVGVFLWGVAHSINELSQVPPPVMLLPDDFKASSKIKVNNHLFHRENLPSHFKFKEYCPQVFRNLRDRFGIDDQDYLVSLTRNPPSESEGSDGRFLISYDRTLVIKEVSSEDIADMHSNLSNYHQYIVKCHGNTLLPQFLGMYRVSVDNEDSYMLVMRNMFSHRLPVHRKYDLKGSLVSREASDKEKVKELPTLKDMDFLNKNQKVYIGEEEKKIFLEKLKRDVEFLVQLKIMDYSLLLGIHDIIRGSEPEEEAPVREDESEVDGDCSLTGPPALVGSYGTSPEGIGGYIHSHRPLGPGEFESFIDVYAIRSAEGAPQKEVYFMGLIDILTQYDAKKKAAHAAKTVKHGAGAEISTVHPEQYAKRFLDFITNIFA
Sequence of UniProt O43194 (whole entry, looked up): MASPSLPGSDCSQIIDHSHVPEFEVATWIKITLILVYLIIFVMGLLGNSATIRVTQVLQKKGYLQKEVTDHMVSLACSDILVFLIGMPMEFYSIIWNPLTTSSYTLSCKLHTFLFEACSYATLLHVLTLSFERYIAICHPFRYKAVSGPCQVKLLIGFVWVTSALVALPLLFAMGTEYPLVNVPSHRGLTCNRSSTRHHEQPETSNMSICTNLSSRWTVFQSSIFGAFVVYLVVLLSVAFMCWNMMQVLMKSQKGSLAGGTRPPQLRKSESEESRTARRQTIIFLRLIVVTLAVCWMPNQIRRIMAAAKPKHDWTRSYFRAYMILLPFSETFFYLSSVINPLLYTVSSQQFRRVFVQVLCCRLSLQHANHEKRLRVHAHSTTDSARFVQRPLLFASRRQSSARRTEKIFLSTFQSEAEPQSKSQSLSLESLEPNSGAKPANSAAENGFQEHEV

O=C(O)COP(=O)(O)O — Ki ratio (TPI1 (Saccharomyces cerevisiae, UniProt P00942, S211G); enzyme activity, competitive inhibitor, GPDH/NADH-coupled; pH 4.9, 25 °C, ionic strength 0.1 NaCl, added: glyceraldehyde 3-phosphate substrate; reference: mutant over wild type): 3.2
OC[C@H]1O[C@@H](n2ccc3c(SCc4ccc(Cl)c(Cl)c4)ncnc32)[C@H](O)[C@@H]1O — survival (Toxoplasma gondii; [3H]uracil incorporation; human fibroblasts, adenosine kinase deficient; 5 µM): 100%
O=C1CN2Cc3c(ccc(Cl)c3Cl)N=C2N1 — maximum inhibition (human coronavirus OC43; virus-induced cell killing; MRC-5; screen): 9.76%
CN1CCN(c2cc(-c3ccncc3)c(-c3ccc4ccccc4c3)nn2)CC1 — activation (P2Y purinoceptor 11 (P2RY11, Homo sapiens, UniProt Q96G91); agonist, FLIPR; 12.5 µM): -0.1%
Oc1ccc2c3c1O[C@H]1[C@@H](O)CC[C@@]4(O)[C@@H](C2)N(CC2CCC2)CC[C@]314 — log2 fold change (GPR39 (Homo sapiens, UniProt O43194); β-arrestin recruitment, TANGO luminescence; concentration not given; reference: basal luminescence): 0.679
C[C@H]1CN(c2n[nH]c3nc(N[C@H]4CC[C@H](NS(=O)(=O)CCC(F)(F)F)CC4)ncc23)CCO1 — remaining binding (AP-2 complex subunit sigma (Homo sapiens, UniProt P53680); Kinobeads competition, item: AP2S1; 0.032 µM, unit not given; reference: vehicle): 1.08
CN[C@]1(c2ccccc2Cl)CCCCC1=O — inhibition (muscle nicotinic acetylcholine receptor; radioligand binding, antagonist, radioligand displacement; 30 µM): -16%
CC[C@H](C)[C@H](NC(=O)CNC(=O)[C@@H](N)CCCCN)C(=O)N[C@@H](CC(C)C)C(=O)N[C@@H](CCCCN)C(=O)N[C@@H](CCCNC(=N)N)C(=O)N[C@@H](CCC(=O)O)C(=O)N[C@@H](CCCCN)C(=O)N[C@@H](CCCNC(=N)N)C(=O)N[C@@H](CC(C)C)C(=O)N[C@@H](CCCNC(=N)N)C(=O)N[C@@H](CCCNC(=N)N)C(=O)N[C@@H](CCCCN)C(=O)N[C@@H](CC(N)=O)C(=O)N[C@H](C(=O)N[C@@H](Cc1c[nH]cn1)C(=O)N[C@@H](Cc1c[nH]c2ccccc12)C(=O)N1CCC[C@H]1C(=O)N[C@@H](CCC(=O)O)C(=O)N[C@@H](CCC(=O)O)C(=O)NCC(=O)N[C@@H](CCCCN)C(=O)N[C@@H](CC(C)C)C(=O)N[C@@H](CCCNC(=N)N)C(=O)N[C@@H](CCC(=O)O)C(=O)N[C@@H](Cc1ccccc1)C(=O)N[C@@H](Cc1ccccc1)C(=O)N[C@@H](Cc1ccccc1)C(=O)N[C@@H](Cc1ccccc1)C(=O)N[C@@H](CCC(=O)O)C(=O)N[C@@H](CC(C)C)C(=O)N[C@@H](CC(=O)O)C(=O)N[C@@H](CCC(=O)O)C(=O)N[C@@H](C)C(=O)N[C@@H](CCC(=O)O)C(=O)N[C@@H](CCCNC(=N)N)C(=O)N[C@H](C(=O)N[C@@H](CC(N)=O)C(=O)N[C@H](C(=O)O)C(C)C)C(C)C)C(C)C — log2 fold change (HeLa and HEK-293T cells; phosphatase bead binding, competitive inhibitor, PIB pulldown iBAQ LC-MS/MS, item: FECH; concentration not given; reference: untreated control): 0.32
O=C(CCc1ccc(CC2CCN(Cc3c[nH]c4ccccc34)CC2)cc1)N1CCCC1 — maximum response (Vero-E6; CellTiter-Glo ATP; 72 h, second round 5-point; reference: DMSO 0%, hyamine -100%, more negative, more toxic): -11.7%
CNC(=O)c1ccc(N2C(=S)N(c3ccc(C#N)c(C(F)(F)F)c3)C(=O)C2(C)C)cc1F — maximum inhibition (human coronavirus OC43; virus-induced cell killing; MRC-5; screen): 3.49%
OC[C@H]1O[C@@H](n2ccc3c(SCc4ccc(F)cc4F)ncnc32)[C@H](O)[C@@H]1O — survival (Toxoplasma gondii; [3H]uracil incorporation; human fibroblasts, adenosine kinase deficient; 50 µM): 100%
O=C(c1ccc(Cl)cc1)N1CCN2C(=O)N(OC(=O)N3CCOc4ccccc43)C(=O)C2C1 (stereo not shown) — median ratio (Fatty acid synthase (FASN, Homo sapiens, UniProt P49327); enzyme activity, inhibitor, MS-based ABPP; SW-620 in situ; 10 µM, 2 h, 37 °C; reference: compound over DMSO, lower = stronger inhibition): 1.13
OC[C@H]1O[C@@H](n2ccc3c(SCc4ccc(Cl)cc4Cl)ncnc32)[C@H](O)[C@@H]1O — survival (Toxoplasma gondii; [3H]uracil incorporation; human fibroblasts, adenosine kinase deficient; 10 µM): 100%
COc1ccc2c3c1O[C@H]1C[C@@H](O)C=C[C@@]31CCNC2 — Km (Leucojum aestivum; N-methylation of galanthamine, substrate, LC-MS/MS; added: SAM 2 mM): 353 ± 28.5 µM
O=C1C=CC(=O)c2ccccc21 — recombination rate constant (Reaction center protein L chain, QB site (pufL, Cereibacter sphaeroides, UniProt P0C0Y8); Rhodobacter sphaeroides, reaction centres; direct QB- to P+ transfer): 0.2 s⁻¹
CCN1CCN(Cc2ccc(NC(=O)c3ccc(C)c(Oc4ccnc5[nH]ccc45)c3)cc2C(F)(F)F)CC1 — inhibition (PIP4K2C (Homo sapiens, UniProt Q8TBX8); A-375; concentration not given): -23.2%
Cc1ccc(CSc2ncnc3c2ccn3[C@@H]2O[C@H](CO)[C@@H](O)[C@H]2O)cc1 — survival (Toxoplasma gondii; [3H]uracil incorporation; human fibroblasts, adenosine kinase deficient; 50 µM): 100%
[2H]c1c([2H])c([C@]2([2H])CCCN2C(=O)C(C)(C)Oc2ccc3cn[nH]c3c2)c([2H])c([2H])c1C([2H])([2H])[2H] — remaining binding (CDK14 (Homo sapiens, UniProt O94921); KINOMEscan; 1 µM; reference: DMSO control): 91%
COc1ccc(N2C(=O)N(c3c(C)cccc3Cl)Cc3cnc(Nc4ccc(C5CCN(C)CC5)cc4OC)nc32)nc1 — inhibition (PIKFYVE (Homo sapiens, UniProt Q9Y2I7); kinase activity; 0.5 µM): 10%

Some of these lines once more:
O=C(O)COP(=O)(O)O — Ki ratio (TPI1 (Saccharomyces cerevisiae, UniProt P00942, S211G); enzyme activity, competitive inhibitor, GPDH/NADH-coupled; pH 4.9, 25 °C, ionic strength 0.1 NaCl, added: glyceraldehyde 3-phosphate substrate; reference: mutant over wild type): 3.2
